Earlier results, collected from citations in different studies.
Each numbered part shows a few of the values that one paper quotes. ± gives the spread as reported.
Sequence of UniProt P46098 (whole entry, looked up): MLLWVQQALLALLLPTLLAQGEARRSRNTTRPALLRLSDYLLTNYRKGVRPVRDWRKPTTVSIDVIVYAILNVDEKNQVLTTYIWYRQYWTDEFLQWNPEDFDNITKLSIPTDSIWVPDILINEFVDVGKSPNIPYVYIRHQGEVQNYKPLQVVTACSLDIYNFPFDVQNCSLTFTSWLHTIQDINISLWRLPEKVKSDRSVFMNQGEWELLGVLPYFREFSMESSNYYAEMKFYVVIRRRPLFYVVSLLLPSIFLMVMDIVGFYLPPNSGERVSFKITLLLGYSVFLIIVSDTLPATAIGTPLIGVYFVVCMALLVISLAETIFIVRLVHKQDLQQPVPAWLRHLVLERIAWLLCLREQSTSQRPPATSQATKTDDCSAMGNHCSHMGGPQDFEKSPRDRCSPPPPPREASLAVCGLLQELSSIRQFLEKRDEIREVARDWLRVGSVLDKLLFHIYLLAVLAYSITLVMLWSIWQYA
Sequence of UniProt P42260 (whole entry, looked up): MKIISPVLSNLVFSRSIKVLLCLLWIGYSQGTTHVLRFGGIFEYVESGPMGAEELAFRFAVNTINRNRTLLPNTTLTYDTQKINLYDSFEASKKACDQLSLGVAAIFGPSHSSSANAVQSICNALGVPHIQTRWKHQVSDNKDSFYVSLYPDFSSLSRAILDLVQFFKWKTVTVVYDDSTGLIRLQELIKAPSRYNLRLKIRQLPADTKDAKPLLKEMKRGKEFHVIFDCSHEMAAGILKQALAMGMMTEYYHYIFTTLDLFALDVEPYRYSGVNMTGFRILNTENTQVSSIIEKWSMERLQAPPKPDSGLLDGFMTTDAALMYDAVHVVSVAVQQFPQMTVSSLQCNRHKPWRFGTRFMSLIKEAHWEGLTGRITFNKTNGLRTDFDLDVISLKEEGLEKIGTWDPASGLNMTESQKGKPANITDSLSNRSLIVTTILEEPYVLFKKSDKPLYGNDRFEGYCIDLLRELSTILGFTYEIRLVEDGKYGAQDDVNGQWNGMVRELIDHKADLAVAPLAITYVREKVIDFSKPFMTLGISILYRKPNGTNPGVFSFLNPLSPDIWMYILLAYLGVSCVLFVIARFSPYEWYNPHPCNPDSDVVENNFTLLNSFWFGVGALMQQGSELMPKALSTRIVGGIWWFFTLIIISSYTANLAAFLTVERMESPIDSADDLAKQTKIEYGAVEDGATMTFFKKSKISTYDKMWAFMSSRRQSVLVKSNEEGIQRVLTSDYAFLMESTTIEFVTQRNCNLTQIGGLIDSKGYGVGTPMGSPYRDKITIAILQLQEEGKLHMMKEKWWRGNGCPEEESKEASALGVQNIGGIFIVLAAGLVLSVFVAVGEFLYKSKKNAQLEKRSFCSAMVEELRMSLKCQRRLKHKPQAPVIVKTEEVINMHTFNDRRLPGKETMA

Study 1
Target: HLA class I histocompatibility antigen, A alpha chain, allele A*26:03 (Homo sapiens, UniProt P04439)
Read-out: peptide-MHC binding
Form: peptide
For `YGIGVGSGY`, the IC50 was 0.379 µM.
The IC50 of `REVFYFGKF` is reported as greater than 20 µM.
For `EELKSLFNTV`, the IC50 was greater than 20 µM.
For `LEYGANYFL`, the IC50 was greater than 20 µM.
For `KLKSLYNTV`, the IC50 was greater than 20 µM.
`RELYYRLKF` has an IC50 of greater than 20 µM.
`RRNRKALWL` has an IC50 of greater than 20 µM.
For `RSLYNTIAVLY`, the IC50 was greater than 20 µM.
The IC50 of `ATADLELAY` is reported as greater than 20 µM.
`TTARPRPPM` has an IC50 of 1.57 µM.
With `EELRSLYNTV` the IC50 was greater than 20 µM.
For `IIGLLKIFR`, the IC50 was greater than 20 µM.
The IC50 of `AVFLSYIGY` is reported as greater than 20 µM.
With `GEGSGARLL` the IC50 was greater than 20 µM.
The IC50 of `EFKQILTDF` is reported as greater than 20 µM.
With `IYWLIFWRF` the IC50 was greater than 20 µM.
With `KYFDDVTAF` the IC50 was greater than 20 µM.
The IC50 of `RENQVAVVR` is reported as greater than 20 µM.
With `KLYVNGKAY` the IC50 was greater than 20 µM.
`EVPEMFGAE` gave an IC50 of 0.306 µM.
With `RIGGVLIFR` the IC50 was greater than 20 µM.
With `TVLEFILQK` the IC50 was greater than 20 µM.
`SQMPPQKIM` gave an IC50 of greater than 20 µM.
For `EIYRTLYGL`, the IC50 was 0.182 µM.
With `WQFAIHYSF` the IC50 was greater than 20 µM.

Mixed results
ache: Acetylcholinesterase (ache, Electrophorus electricus, UniProt O42275)
Sequence of UniProt O42275 (whole entry, looked up): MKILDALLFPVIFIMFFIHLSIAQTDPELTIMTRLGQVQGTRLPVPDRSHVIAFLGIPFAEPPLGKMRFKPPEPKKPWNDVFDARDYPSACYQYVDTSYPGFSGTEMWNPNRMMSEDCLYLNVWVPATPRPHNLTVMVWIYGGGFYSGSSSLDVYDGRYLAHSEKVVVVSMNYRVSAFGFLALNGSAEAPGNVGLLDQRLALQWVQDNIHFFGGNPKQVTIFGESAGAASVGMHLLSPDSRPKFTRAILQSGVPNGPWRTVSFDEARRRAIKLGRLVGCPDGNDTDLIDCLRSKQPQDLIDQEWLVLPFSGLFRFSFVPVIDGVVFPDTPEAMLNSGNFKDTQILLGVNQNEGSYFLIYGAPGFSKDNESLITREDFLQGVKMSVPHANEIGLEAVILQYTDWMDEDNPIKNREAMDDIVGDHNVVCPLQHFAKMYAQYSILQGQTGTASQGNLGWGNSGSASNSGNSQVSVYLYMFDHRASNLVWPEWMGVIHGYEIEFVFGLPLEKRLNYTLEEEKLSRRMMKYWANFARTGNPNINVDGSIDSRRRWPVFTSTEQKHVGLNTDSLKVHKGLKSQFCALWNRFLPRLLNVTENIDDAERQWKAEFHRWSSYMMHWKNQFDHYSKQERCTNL
`c1ccc2c(c1)OCC(C1=NCCN1)O2` (centres unmarked) gave an IC50 of 0.012 µM (imidazoline I2 receptor; binding; central nervous system; historical reference value).
`CCCC(CCC)C(=O)O` gave a protective index of 2.1 (male rat; i.p., MES seizure test).
`Cc1ccc(-c2cc3c(c(OCC4CCCN(C)C4)c2)OCCN(C(=O)Cc2c(C)noc2C)C3)s1` (centres unmarked) has an EC50 of 23 nM (Leishmania mexicana; intracellular amastigotes; original screening sample).
For `CN1COCN(Cc2cnc(Cl)s2)/C1=N\[N+](=O)[O-]`, the recovery was 67% (soil; 0.12 nominal, 28 days, Folsomia candida soil test).
For `O=C(/C=C/c1ccc(O)c(O)c1)O[C@H](Cc1ccc(O)c(O)c1)C(=O)O`, the Ki was 0.042 nM (ache).
`Cn1c(CCCC(=O)O)nc2cc(N(CCCl)CCCl)ccc21` gave an IC50 of 50 µM (DNA/RNA synthesis; DNA damage; cell-free).
The IC50 of `CCCSc1ccc2nc(NC(=O)OC)[nH]c2c1` is reported as 200 µg/mL (Trichuris muris; L3 larvae).
`CCN(CC)C(=O)c1ccc(C(=C2CCNCC2)c2cccc(OC)c2)cc1` has a logD of 1.33 (pH 7).
For `ClC1=C(Cl)[C@]2(Cl)[C@@H]3[C@@H]4C[C@@H]([C@H]5O[C@@H]45)[C@@H]3[C@@]1(Cl)C2(Cl)Cl`, the logD was 4.94 (pH 7.4).
The seizure-inducing dose of `NC(CC1(C(=O)O)CC2OC(CO)C(O)C(N)C2O1)C(=O)O` (centres unmarked) is reported as 1.3 nmol/mouse (mouse; intracerebroventricular, preliminary).
`Clc1ccc(C2c3ccccc3C3=NCCN32)cc1` (racemic) has a Ki of 13 nM (serotonin transporter).
`C[Si]1(C)O[Si](C)(C)O[Si](C)(C)O[Si](C)(C)O[Si](C)(C)O1` has a bioconcentration factor of 3500 L/kg wet weight (Oncorhynchus mykiss; concentration not given).
The IC50 of `O=S(=O)(O)C(F)(F)C(F)(F)C(F)(F)C(F)(F)C(F)(F)C(F)(F)F` is reported as 82.8 ± 5.61 µM (CYP2C19; inhibitor).
`C=C(C)[C@@H]1CCC(C)=C[C@H]1c1c(O)cc(CCCCC)cc1O` gave a protective index of 9.4 (male rat; i.p., MES seizure test).
For `CN[C@H]1[C@H]2O[C@@](C[C@H](N)C(=O)O)(C(=O)O)C[C@H]2OC[C@H]1O`, the Ki was 1.3 nM (Glutamate receptor ionotropic, kainate 2 (Grik2, Rattus norvegicus, UniProt P42260)).
`c1cncc(C2=NCCC2)c1` has a Ki of 3300 nM (nicotinic acetylcholine receptor alpha4beta2).
`COc1c(/C=C/c2ccc(NS(C)(=O)=O)cc2)cc(-n2ccc(=O)[nH]c2=O)cc1C(C)(C)C` gave an EC50 of 1.8 nM (hepatitis C virus; viral replication, replicon; genotype 1b).
Under IC50, `FC(F)(F)C(F)(F)C(F)(F)C(F)(F)C(F)(F)C(F)(F)CCI` is recorded as “inactive” (CYP2C19; inhibitor; Tox21 screening).
The Hill coefficient of `CN1[C@@H]2CC[C@H]1C[C@@H](OC(=O)c1cc(Cl)cc(Cl)c1)C2` is reported as 0.8 (5-hydroxytryptamine receptor 3A (HTR3A, Homo sapiens, UniProt P46098); historical reference value).
For `[H]/N=C(/N)N[C@H]1[C@H](O)[C@@H](O)[C@H](O[C@@H]2O[C@@H](C)[C@](O)(C=O)[C@H]2O[C@@H]2O[C@@H](CO)[C@H](O)[C@@H](O)[C@@H]2NC)[C@@H](N/C(N)=N\[H])[C@@H]1O`, the Kd was roughly 1000 nM (bacterial 30S ribosomal protein S12; -25).
`CC(=O)C[C@@H](c1ccccc1)c1c(O)c2ccccc2oc1=O` gave a renal clearance of 0.003 L/h (human).
`COP(=S)(OC)Oc1ccc(SC)c(C)c1` gave a logD of 3.8 (pH 7.4).
With `CCCCCc1cc(O)cc(O)c1` the Ki was 65.9 nM (ache).
`O=C(c1ccc(F)cc1)C1CCN(C2Cc3c(cccc3OCCF)CC2O)CC1` (single isomer, unassigned; (-)) gave a Ki of 0.59 nM (VAChT).
Under “rate constant into compartment”, `OCc1ncc2n1-c1ccc(Cl)cc1C(c1ccccc1F)=NC2` is recorded as 0 L/h (single-compartment model).

For quick reference, copied from above (study 1):
With `EELRSLYNTV` the IC50 was greater than 20 µM.
`RELYYRLKF` has an IC50 of greater than 20 µM.
The IC50 of `AVFLSYIGY` is reported as greater than 20 µM.
For `LEYGANYFL`, the IC50 was greater than 20 µM.
With `GEGSGARLL` the IC50 was greater than 20 µM.
